Measured values collected from several papers.
Numbered parts are unrelated; each lists some results of a single study.

Study 1
Target: RING finger protein unkempt homolog, zinc fingers 1-6, SBP tag (UNK, Homo sapiens, UniProt Q9C0B0, residues 30-357)
Sequence of UniProt Q9C0B0 (30-357, looked up): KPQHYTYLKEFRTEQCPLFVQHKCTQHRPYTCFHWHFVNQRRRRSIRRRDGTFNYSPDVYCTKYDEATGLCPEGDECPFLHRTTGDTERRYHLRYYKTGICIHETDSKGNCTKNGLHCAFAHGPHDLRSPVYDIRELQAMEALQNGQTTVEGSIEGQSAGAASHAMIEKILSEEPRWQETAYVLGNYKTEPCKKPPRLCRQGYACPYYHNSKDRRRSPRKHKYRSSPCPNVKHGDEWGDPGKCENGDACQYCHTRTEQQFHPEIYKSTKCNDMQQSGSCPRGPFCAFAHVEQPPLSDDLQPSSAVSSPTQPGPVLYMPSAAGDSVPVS
Technique: RNA Bind-n-Seq
Form: RNA
Matrix: in vitro
Tested at: 100 nM
Notes: RNA with constant flanks, vertebrate orthologous sites, ends assumed
Relative to: input RNA pool
Direction: higher = stronger binding
Endpoint: bound/input enrichment
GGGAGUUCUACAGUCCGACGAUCAGCUUCUGGCGACAUUUGGCCUGGCCUUUCAGCAUAUGAUAACAGUCCAAGGUCACCCCAUAGUCCUUCUAUUGCCACCCCACCUAGUCAGAGUUCAUCUUGCUCUGAAGCCCCUUUGCUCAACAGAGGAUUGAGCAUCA: 0.897 ratio
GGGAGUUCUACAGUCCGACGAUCUUUUGCUUUCAGGUUGUGGCUGAUUUUGUUAAUCCUUCUUUCCUUACGAGUCCUUUUCUUUGCACCCUCCAUAUCCCUUCUUUGACUCAGACAAGUGUGGUAUAUUUUACUUAGUCAUUGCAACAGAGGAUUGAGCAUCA: 0.496 ratio
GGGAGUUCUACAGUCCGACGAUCAGGGAGAAGAACUCACAAACUCAAAGGAAAACUAUUAAAGAGUUUCUAAUAGUUAAAAGCUAGGAAAGAUUAGGACAACUUUACAAAUGAGAAAUCAAAAAUAAAACACAAGAAAAAGGACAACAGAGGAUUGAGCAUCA: 0.617 ratio
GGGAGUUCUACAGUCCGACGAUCCAGUGCCCUGGGCCGGGACAGAUUUUUUUUUAACGUCUUGAAACUUAAACUCUGUGCUUGUAGGAUACUGUAACCUUUUUGUCUUUUUUUUUUUUUUUUUUUUUUUUUUAAACCUCCACCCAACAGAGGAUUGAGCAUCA: 6.11 ratio
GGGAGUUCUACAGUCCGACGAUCGCUCUAGUUCUUAAGAACCAACACUCCUAAAAGAUUUAGAAAAAAGUUUACAACAUAAUCUAGUUUACGAAGAAGCCUUGUGCUAGAAUACUUUUUAAAAAGUAUUUUUGAAUACCAUUACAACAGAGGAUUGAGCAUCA: 0.669 ratio
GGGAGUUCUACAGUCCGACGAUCGUUGUGUUGUGUACAGGGCUUCAUUCUCUGUACAAGUCUGUGGUUAUAAAAUUAGUAAAACAGCUUACAUUUGUAUUUAUUUUCUAGUCCAUACUUCUGUACCCCCAUUUUUUUCUCCCUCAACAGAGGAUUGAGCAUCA: 0.969 ratio
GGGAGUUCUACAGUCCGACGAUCAGAAAACUUUAACCAAGAAUCAGAAGGUAGAAAUACAGGACCAUGGUUGUCUUCCUCACUUAGAAAUAGAUGCACACCUUUGUUCUCUAGAAGGAGGCGAGAGGGAAGAGAUGAGUCUUCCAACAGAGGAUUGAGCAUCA: 0.69 ratio
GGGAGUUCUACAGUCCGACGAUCAAAAUAGCAUAGGAGGUUGUGGUGUUUUUGUUUUUUUUAAAAAGGAGCAAUUGGAGAGAGAAGAUACAACUAUCAAGAGCCAGGUGGAUAAAAAGCACAGAUGAAGAUCAUUGAAACUCACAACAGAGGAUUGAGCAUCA: 0.905 ratio
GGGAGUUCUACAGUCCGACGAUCCCCUCUGAAUCCCAUUUCUUCUGUUUCAUAGUGCAGAAGUGUUCCUUUCAAUUUUAUUCUUAGUGGACUUGUUUUAAUUUUAGGGAAAUUUUCAGUACAGAUACUGUGAGCUUACAUGGACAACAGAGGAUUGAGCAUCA: 1.56 ratio
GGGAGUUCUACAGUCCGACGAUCAAAGAUUGGGUUCCAGUCAAAUGAGCUGGCAUUGUACAGAAAAUCACAGCCAAUCUUAGAAUUUUUUUUUCGCAGUCUGACCAGGGAAAAGAUAAAAUGCAUUGUAUUAAAUAUGUAAGCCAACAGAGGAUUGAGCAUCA: 0.875 ratio
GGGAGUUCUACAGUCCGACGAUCACACUUAUAUUGUGGCAUAUAGUCAACAUGGAAGUAGACCAGCUCUGCUGAUUUGAAAUUUAGAUUUUUUAAAUUAUGUACUGGGGACAGGUUUUUGUCGCUUUACAUUGCUUCCUAGUUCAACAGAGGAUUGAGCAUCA: 2.2 ratio

Study 2
Target: Interferon regulatory factor 5, full length, phosphomimetic (IRF5, Homo sapiens, UniProt Q13568-2, residues 1-514, K96S/S451D/S453D/S456D/S462D)
Technique: protein-binding microarray
Form: double-stranded DNA, one strand shown
Matrix: in vitro
Tested at: 250 nM
Notes: 60-bp whole probe
Added: salmon DNA 0.4 mg/ml
Relative to: random background probes
Direction: higher = stronger binding
Endpoint: log fluorescence
All sequences stand within: GCCTAGCAC … GTCTTGATTCGCTTGACGCTGCTG
TTAGATATCAGAATCGATTAGTGCTAG: 1.34 z-score
GACGGTTTCGGTATCGGGATGTGCTAG: 10.2 z-score
GACGAAATCGGGTTTCGAGACGTGCTA: 2.84 z-score
ACCACTTTTATTTTCAGTATGTGCTAG: 3.86 z-score
GACTGACTGGGTTTCGGGACGTGCTAG: 2.38 z-score
TACGATTTCAGTCTCGAGACGTGCTAG: 1.62 z-score
GACGGTTTCGGAGTGGGGACGTGCTAG: 3.73 z-score
TTAGAACTGAGTTTAGATTAGTGCTAG: -0.13 z-score
GACGGTATCGACTTTCGGGAGGTGCTA: 6.29 z-score
GACGATATCTGGTTTCGAGACGTGCTA: 4.16 z-score
GACGGTTTCGGTCTCGGGACGTGCTAG: 9.64 z-score
GACGTTATCGGGACTGGGGACGTGCTA: 1.04 z-score
GACGGCCTCGGTTTCGGGACGTGCTAG: 2.11 z-score
ATAATTTTTCTAGTGGTTGCGTGCTAG: 1.02 z-score
TCTCTTTTTGCTTTCTTTTAGTGCTAG: 2.98 z-score
GATTGGTTGAACATGAACTTGTGCTAG: 0.193 z-score
TCATCTTTCCCTGCCCCATGGTGCTAG: 0.959 z-score
GACGGTATCCTTCTCCAGACGTGCTAG: 0.0661 z-score
GGGTCTTGCAGTATGGAAAGGTGCTAG: -0.269 z-score
TTAGATCTCAGTATCGATTAGTGCTAG: 6.68 z-score
TTAGGTTTCGCTCTCGGTTAGTGCTAG: 7.78 z-score
GCCGGTTTCGACTATCGGGACGTGCTA: 7.76 z-score
GACGGACTGCTACGGCTGACGTGCTAG: -0.345 z-score
TTAGATATTAGTATCGATTAGTGCTAG: 8.02 z-score

Study 3
Target: RNA binding protein fox-1 homolog 2, RRM domain, GST-SBP tag (RBFOX2, Homo sapiens, UniProt O43251-10, residues 100-194)
Technique: RNA Bind-n-Seq
Form: RNA
Matrix: in vitro
Tested at: 365 nM
Notes: natural RNA segment, single round, ends assumed
Relative to: no-protein control
Direction: higher = stronger binding
Endpoint: RBNS enrichment (R)
Residues (chain): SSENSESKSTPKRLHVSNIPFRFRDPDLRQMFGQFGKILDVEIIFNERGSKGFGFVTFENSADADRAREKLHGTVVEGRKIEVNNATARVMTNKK
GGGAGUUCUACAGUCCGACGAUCGGAGCCUGGAGCCUUGCUCUCUGGGCACAGAGGGCUCUGCUCUCCUGCCUGCUGGGACCUGUGGAUGGGCUUCCUGGCCAAGGCCCCCUCUUCCAGGGGAGGAGCAGGGAUGGAAUUCUCGGGUGCCAA: 0.318
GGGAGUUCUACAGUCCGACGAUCUGAGCUGUGAGUGGUUAGUGCAUUGCUGGUAUUGCUGAAGGCAGGGUUGAUCCCUCACUUGACUGAUACUUGCAUUCAAGAGAAUCUAGAUUGUGUUGGGGGAGGGACUGUGGAAUUCUCGGGUGCCAA: 0.555
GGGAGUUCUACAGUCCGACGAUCGAGCUUGAGCACCAUGACAUAGGCCUCGACCAUGAUGCAGAAUUGGCUCCAGCCUAUGCCGUCCUGAAGAGCAUUAUCCAGGCCGGAUGCAGAGUGGCGAUAUAUUUAUCUGGAAUUCUCGGGUGCCAA: 3.69
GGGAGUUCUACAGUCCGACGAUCAUUUUUCUCUACUUACAUGUAUUCCUGUGAAUAAAUCCUUGUUAAGUUAACCCUUUACUUUUCCUUCCAUGUGUAUUUUCUUAUAUACUGUGAAUGUGAAAACCUAACUGUGGAAUUCUCGGGUGCCAA: 0.295
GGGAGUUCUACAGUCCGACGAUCCUUCUCCGCAGCAAGAUAUGAAAACCUUUUCAGUGCUUGCCCUCAGCAGCUAAGAAGACAGACAGUAGAGAAUGUGAGAGGAUCUCAUGGUUCUGAUGAUGAUUAUCCAAUGGAAUUCUCGGGUGCCAA: 1.19
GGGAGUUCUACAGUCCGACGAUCCAGCAUGCUGUGCCGGCACAUCGUGGAGUCCUAGAAACUCUCUAGUCCCUGCGGCUGUUCCCCUCCUCUGCUCUCUCCCUGGAGAGGACUGCCAGCUCUUAAGAAACAUUUGGAAUUCUCGGGUGCCAA: 0.999
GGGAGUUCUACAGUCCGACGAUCGCUUUGAUCCUGUUUCAGUCAAAGUCAGCUUCAGCCACCCCCUCCAUUCCCUAGCCAGCUCCACCCUUGAUGAAACUGUGGCUAAUGUUCCUUCACUAGGACAGGCACCAUGGAAUUCUCGGGUGCCAA: 0.416
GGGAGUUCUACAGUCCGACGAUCAGCUCCAGACAGCAAGAGCCCAGGUGCACUGCUCACACCCCCACCUGCAUUUUGAAGUCAUAUUAUUUUUUGUUUUGUUUUUUAAGACGGUCUGGCUCUGUCGCCUAAGCUGGAAUUCUCGGGUGCCAA: 16.7
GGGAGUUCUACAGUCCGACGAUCAAUGGUGGUAAAGAGCAUGUUUUGAAAUGCUGUGGAAACCAUCUAUGCUGACAGUCUUGCAGCAUGGGAACAAAGACAUCAUAUUUUGCUUCAAAUUCUCUUUCAGUAGUUGGAAUUCUCGGGUGCCAA: 1.49

Study 4
Target: Ras GTPase-activating protein-binding protein 1, full length (G3BP1, Homo sapiens, UniProt Q13283)
Sequence of UniProt Q13283 (whole entry, looked up): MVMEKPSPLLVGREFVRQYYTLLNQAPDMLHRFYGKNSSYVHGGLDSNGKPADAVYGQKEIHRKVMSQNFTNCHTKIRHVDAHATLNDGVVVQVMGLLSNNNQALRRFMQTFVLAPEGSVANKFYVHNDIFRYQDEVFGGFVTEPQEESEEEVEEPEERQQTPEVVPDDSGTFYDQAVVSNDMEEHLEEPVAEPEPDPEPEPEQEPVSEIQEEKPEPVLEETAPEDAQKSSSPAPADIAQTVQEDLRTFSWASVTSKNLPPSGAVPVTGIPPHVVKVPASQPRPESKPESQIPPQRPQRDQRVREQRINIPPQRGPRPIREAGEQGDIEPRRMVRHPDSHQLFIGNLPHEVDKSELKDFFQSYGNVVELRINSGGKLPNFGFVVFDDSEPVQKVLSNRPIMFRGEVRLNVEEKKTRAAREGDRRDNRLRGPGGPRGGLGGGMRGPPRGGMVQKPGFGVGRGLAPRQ
Technique: RNA Bind-n-Seq
Form: RNA
Matrix: in vitro
Tested at: 200 nM
Notes: whole 134-nt RNA, ends assumed
Added: 150 mM LiCl
Relative to: input library
Direction: higher = stronger binding
Endpoint: log2 enrichment
Each molecule: 7-deaza-guanosine replaces G
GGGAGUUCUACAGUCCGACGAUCCUGUGCUACACAUCGUAUGUACCGAAUCGGCCCCCCCGGGCCCCCCCGGGCCCCCCCGGGGAAAGUAUUAUGUUACGCCGUUCGGAUCUGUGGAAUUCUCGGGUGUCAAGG: -0.209
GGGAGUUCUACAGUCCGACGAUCUCAAGUCCUGUGCUACACAUCGUAUGUACCGAAUCGGAGGUUUUUUUGGUUUGGAAAGUAUUAUGUUACGCCGUUCGGAUCUGCACUUCCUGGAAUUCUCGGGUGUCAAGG: -1.36
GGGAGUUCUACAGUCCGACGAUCUGGCCCUGGUGGCAUGCGGGGAGGAAGAGGUGGCCUCAUGGAUCGUGGUGGUCUCGGUGGAAUGUUCAGAGGUGGCCGUGGUGGAGACAGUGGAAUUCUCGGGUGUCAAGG: 0.496
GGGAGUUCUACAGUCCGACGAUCUCGUUCCCCCCGCCACGAGAAGAAGAAGAAGGUCCGUAAAUACUGGGACGUGCCACCCCCAGGCUUUGAGCACAUCACCCCAAUGCAGUAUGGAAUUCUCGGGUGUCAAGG: 0.0227
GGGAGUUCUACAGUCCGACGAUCAAGUCCUGUGCUACACAUCGUAUGUACCGAAUCGGGUUUGGGUUUGGGGUUUGGGGAAAGUAUUAUGUUACGCCGUUCGGAUCUGCACUUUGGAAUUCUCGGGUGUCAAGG: -0.656
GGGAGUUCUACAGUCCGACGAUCUCAAGUCCUGUGCUACACAUCGUAUGUACCGAAUCGGGAGGGAAAAAGGGAGGGAAAGUAUUAUGUUACGCCGUUCGGAUCUGCACUUCCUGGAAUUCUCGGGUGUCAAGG: 0.0156
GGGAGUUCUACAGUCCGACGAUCCACAGACAACACGCACCCACACAGACACAGAGGGAAGGGGUUGGGAUGGGGACACGGUGCACAGCAGGGCGGGGUAGGACCCCAGCCCCUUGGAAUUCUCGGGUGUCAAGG: 0.3
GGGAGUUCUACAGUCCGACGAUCUGGGAGGUGGAUUUUGUUUAUUUUUUUAGCUCAUUUCCAGGGGUGGGCAUUUUUUUUUAAUAUGUGUCAUGAAUAAAGUUGUUUUUGAAAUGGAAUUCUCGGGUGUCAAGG: -0.469

Repeated from above (study 4):
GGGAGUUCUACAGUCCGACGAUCUCGUUCCCCCCGCCACGAGAAGAAGAAGAAGGUCCGUAAAUACUGGGACGUGCCACCCCCAGGCUUUGAGCACAUCACCCCAAUGCAGUAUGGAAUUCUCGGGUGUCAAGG: 0.0227
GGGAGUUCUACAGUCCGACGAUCAAGUCCUGUGCUACACAUCGUAUGUACCGAAUCGGGUUUGGGUUUGGGGUUUGGGGAAAGUAUUAUGUUACGCCGUUCGGAUCUGCACUUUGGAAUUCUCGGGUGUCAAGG: -0.656
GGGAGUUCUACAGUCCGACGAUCUCAAGUCCUGUGCUACACAUCGUAUGUACCGAAUCGGGAGGGAAAAAGGGAGGGAAAGUAUUAUGUUACGCCGUUCGGAUCUGCACUUCCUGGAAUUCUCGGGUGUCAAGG: 0.0156
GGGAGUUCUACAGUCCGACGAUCCACAGACAACACGCACCCACACAGACACAGAGGGAAGGGGUUGGGAUGGGGACACGGUGCACAGCAGGGCGGGGUAGGACCCCAGCCCCUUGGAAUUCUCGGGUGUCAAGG: 0.3
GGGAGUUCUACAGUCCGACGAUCUGGGAGGUGGAUUUUGUUUAUUUUUUUAGCUCAUUUCCAGGGGUGGGCAUUUUUUUUUAAUAUGUGUCAUGAAUAAAGUUGUUUUUGAAAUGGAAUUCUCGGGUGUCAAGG: -0.469
